Published values collected from several papers.
Each numbered part is a random draw from the data of one study; scales do not carry over between parts.

Series 1 — technique: protein-binding microarray; molecule type: double-stranded DNA, one strand shown; matrix: in vitro; concentration: 250 nM; notes: 60-bp whole probe; with: salmon DNA 0.4 mg/ml; baseline: random background probes; reading: higher = stronger binding; all sequences stand within: GCCTAGCAC … GTCTTGATTCGCTTGACGCTGCTG
Target: Interferon regulatory factor 5, full length, phosphomimetic (IRF5, Homo sapiens, UniProt Q13568-2, residues 1-514, K96S/S451D/S453D/S456D/S462D)
For `GACGGAATCGGACTGGGGACGTGCTAG`, the log fluorescence was -0.0269 z-score.
`TTAGGTTCGGGTTTCGGTTAGTGCTAG` has a log fluorescence of 7.94 z-score.
`TTAGGTTTCCATTCCCTTTAGTGCTAG` gave a log fluorescence of 1.42 z-score.
The log fluorescence of `TCACATATATATATGAAACTGTGCTAG` is reported as 1.08 z-score.
The log fluorescence of `TTAGATATCGGGACTGGATAAGTGCTA` is reported as 1.17 z-score.
`GAGGATTTCAGTTTCGAGACGTGCTAG` gave a log fluorescence of 6.58 z-score.

Series 2 — technique: RNA Bind-n-Seq; molecule type: RNA; matrix: in vitro; concentration: 200 nM; notes: whole 134-nt RNA, ends assumed; with: 150 mM LiCl; baseline: input library; reading: higher = stronger binding; each molecule: 7-deaza-guanosine replaces G
Target: Fragile X messenger ribonucleoprotein 1, C-terminal low-complexity region (Fmr1, Mus musculus, UniProt P35922)
All sequences stand within: GGGAGUUCUACAGUCCGACGAUC … UGGAAUUCUCGGGUGUCAAGG
`UCCUCAAGUCCUGUGCUACACAUCGUAUGUACCGAAUCGGGCGGCGGGCGGAAAGUAUUAUGUUACGCCGUUCGGAUCUGCACUUCCAGC` gave a log2 enrichment of 0.293.
For `ACCAUGCAGGUGGGCAUCUUUGGGAAGUGGGGCAAGGGGGGGAUAGGGAGGGGGGUAACACUUUGCGAACAGGUGGUCCCAGGUCGUUUC`, the log2 enrichment was 1.04.
With `CUCAAGUCCUGUGCUACACAUCGUAUGUACCGAAUCGGUUUUUUUGGUGGUGGAAAGUAUUAUGUUACGCCGUUCGGAUCUGCACUUCCA` the log2 enrichment was -0.0384.
With `CUGUGCUACACAUCGUAUGUACCGAAUCAAACCCCCCCAAACCCCCCCAAACCCCCCCAAAAAAGUAUUAUGUUACGCCGUUCGGAUCUG` the log2 enrichment was 0.82.
With `GUCCUGUGCUACACAUCGUAUGUACCGAAUCAAACCCCCAAACCCAAACCCCCCCAAAAAAGUAUUAUGUUACGCCGUUCGGAUCUGCAC` the log2 enrichment was 0.781.
`CCUGUGCUACACAUCGUAUGUACCGAAUCGGGGUUUGGGGAAAAAAAGGGGUUUUUGGGGAAAGUAUUAUGUUACGCCGUUCGGAUCUGC` has a log2 enrichment of -0.685.

Series 3 — technique: RNA Bind-n-Seq; molecule type: RNA; matrix: in vitro; concentration: not given; notes: RNA with constant flanks, ends assumed; baseline: input RNA pool; reading: higher = stronger binding
Target: RING finger protein unkempt homolog, zinc fingers 1-6, GST-SBP tag (UNK, Homo sapiens, UniProt Q9C0B0, residues 30-357)
Chain of UniProt Q9C0B0 (30-357, looked up): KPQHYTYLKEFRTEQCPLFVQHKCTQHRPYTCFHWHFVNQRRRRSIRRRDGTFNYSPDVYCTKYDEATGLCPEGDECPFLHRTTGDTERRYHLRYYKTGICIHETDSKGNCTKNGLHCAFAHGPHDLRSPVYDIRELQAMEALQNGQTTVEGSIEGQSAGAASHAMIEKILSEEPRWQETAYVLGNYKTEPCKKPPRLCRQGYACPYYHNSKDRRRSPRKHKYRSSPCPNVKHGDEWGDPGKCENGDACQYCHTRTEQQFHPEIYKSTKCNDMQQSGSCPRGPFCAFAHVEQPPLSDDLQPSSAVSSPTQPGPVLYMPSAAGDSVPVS
For `GGGAGUUCUACAGUCCGACGAUCUCUGAAUCUGAACAGGCUCUUAAAGGUACUUCUCAGAUUAAAUUACUCUCAUCUGAAGAUACCGAAGGGAUGCGACUUGUAUGUAGGCUUGCUAGAGAAGUUUUGGAUGUUGCUGCCGGCCAACAGAGGAUUGAGCAUCA`, the bound/input enrichment was 0.376 ratio.
`GGGAGUUCUACAGUCCGACGAUCAAUGUCAUCGAUGCCAAUUUCUGCAUGAAAGGAGAAGACCUGGACUCUCAGGUUGGAGUUACCGAUUUUUCGAUGUAUCUCAAAGAUGGAAACAGUAGUAAAGGUAGUGAAGGGGAUGGACAACAGAGGAUUGAGCAUCA` has a bound/input enrichment of 0.761 ratio.
With `GGGAGUUCUACAGUCCGACGAUCUAUUUAUGUCAAUAUUGUGAAUAUUCAACAGGACAAAUUGAAGAUCUUAAAAUUCAUCCCGAUUUCAAGCAUUCAGCUGACUUGCCUCAUAAAUGUAGUGACUGCUUGAUGAGGUUUGGACAACAGAGGAUUGAGCAUCA` the bound/input enrichment was 0.289 ratio.
`GGGAGUUCUACAGUCCGACGAUCGAGUGCCUGAGCAACAUCCGCGAGUUCCUGCGCGCCUGCGGGGCGUCCCUGCGCCCCGAGACUUUUGAUGCAAAUGAUUUGUAUCAGGGGCAGAACUUUAACAAGGUCCUCAGCUCCUUGCAACAGAGGAUUGAGCAUCA` has a bound/input enrichment of 0.141 ratio.

Mixed results
For `PhoQ, residues 284 288 289 292 302 303 SSTMSV`, the fold induction was 0.726 (PhoP, residues 12 14 15 18 19 TPLRH (Escherichia coli, UniProt P23836); Sort-seq, refers to: YFP reporter; E. coli; PhoQ-PhoP variant library, with: 10 µM Mg2+; baseline: high Mg2+ state, higher = stronger signaling).

Some of these lines once more (series 3):
With `GGGAGUUCUACAGUCCGACGAUCUAUUUAUGUCAAUAUUGUGAAUAUUCAACAGGACAAAUUGAAGAUCUUAAAAUUCAUCCCGAUUUCAAGCAUUCAGCUGACUUGCCUCAUAAAUGUAGUGACUGCUUGAUGAGGUUUGGACAACAGAGGAUUGAGCAUCA` the bound/input enrichment was 0.289 ratio.
`GGGAGUUCUACAGUCCGACGAUCGAGUGCCUGAGCAACAUCCGCGAGUUCCUGCGCGCCUGCGGGGCGUCCCUGCGCCCCGAGACUUUUGAUGCAAAUGAUUUGUAUCAGGGGCAGAACUUUAACAAGGUCCUCAGCUCCUUGCAACAGAGGAUUGAGCAUCA` has a bound/input enrichment of 0.141 ratio.
